Assay results pooled from the literature.
Parts stem from different laboratories: compare values within a part only.

Series 1
Target: Interferon regulatory factor 5, full length, phosphomimetic (IRF5, Homo sapiens, UniProt Q13568-2, residues 1-514, K96S/S451D/S453D/S456D/S462D)
Technique: protein-binding microarray
Molecule type: double-stranded DNA, one strand shown
Matrix: in vitro
Concentration: 250 nM
Notes: 60-bp whole probe
Added: salmon DNA 0.4 mg/ml
Reference: random background probes
Reading: higher = stronger binding
All sequences stand within: GCCTAGCAC … GTCTTGATTCGCTTGACGCTGCTG
| Strand | log fluorescence |
| --- | --- |
| TTAGGACTGCACTTTCGGTTAGTGCTA | 9.49 z-score |
| GACGGTCTCGGACTGGGGACGTGCTAG | -0.355 z-score |
| CCTCCTCTAACTTTCCAATTGTGCTAG | 0.655 z-score |
| TTAGATTGCAGACTGGATTAGTGCTAG | -0.332 z-score |
| GACCGTCTCCTTATCCTGACGTGCTAG | -0.293 z-score |
| TGTCATATACACATCTTCTGGTGCTAG | 0.382 z-score |
| AAGAAGCTTCCTCTCTGCCAGTGCTAG | -0.186 z-score |
| TTAGGACTGGGTCCCGGTTAGTGCTAG | -0.523 z-score |

Series 2
Target: RNA binding protein fox-1 homolog 2, RRM domain, GST-SBP tag (RBFOX2, Homo sapiens, UniProt O43251-10, residues 100-194)
Technique: RNA Bind-n-Seq
Molecule type: RNA
Matrix: in vitro
Concentration: 365 nM
Notes: natural RNA segment, single round, ends assumed
Reference: no-protein control
Reading: higher = stronger binding
Target sequence (chain): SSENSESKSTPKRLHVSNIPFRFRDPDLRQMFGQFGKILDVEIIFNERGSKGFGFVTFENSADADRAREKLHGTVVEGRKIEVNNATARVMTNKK
| Strand | RBNS enrichment (R) |
| --- | --- |
| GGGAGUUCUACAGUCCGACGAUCCAAGGGACAGAAGCAAGACAAAAUGCAUGGGCCCUUGUGUUCCUAAUGGUCUUAACUGAAGUCCAACUUCAGUUACAAUUUUCAGAGGCUCGUUGUUUUCCCAAAGCUAAUGGAAUUCUCGGGUGCCAA | 2.07 |
| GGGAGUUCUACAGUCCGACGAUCUAACCUCACCUUCCCUGGCUCAUCUUGGCCUUGGGGAGUUGCCUUUAGGCUUGAGUCCUCAAGCCUCUCCUUUUCGUCCAUAAUAAAAUGUUUAAGUUAUUAAGAUCCUUUGGAAUUCUCGGGUGCCAA | 0.226 |
| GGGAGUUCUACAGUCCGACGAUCUAAUAGAAGCUCAACUAUUUUUUUGUGGAUUUCAGUUUUUAUCAUCAGAAGUCCUAGACAGUGACAUUUCUUAAUGGUGGGAGUCCAGCUCAUGCAUUUCUGAUUAUACAUGGAAUUCUCGGGUGCCAA | 0.495 |
| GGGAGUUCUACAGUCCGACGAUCAGCCUUUGCCAGUCUAGCCCCAGCAGGGCACCGUGUAUGAAUGCAGUUUGGUGCUGUUUUAGAGUAUGCCUGCUCCCCAGCCCCCUGCCUGGAACCCUCUGAGCAACUUGUGGAAUUCUCGGGUGCCAA | 2 |
| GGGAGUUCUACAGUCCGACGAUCGAUCUGCUUCAGGUGUAGUCUGGAAGGUUCCUUGGUAUGGCUCAUGAACACAGAGCUCAAAGAUACCGUCUUGAGAAAUCCUCCUUGGUACCAUGUGACCGGAGCAGAGGUGGAAUUCUCGGGUGCCAA | 0.289 |
| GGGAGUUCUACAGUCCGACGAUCCAGUUUUCCGCUAGUAUCCGGCAAGGUUUCUUGCAACAAAUGAUUAGUUCUUUUCUUCUGACUCGUGGGGCUCCCUGCUGCAGAGAGCACAGCCCUUGCCUGGAGCCCAGUGGAAUUCUCGGGUGCCAA | 0.398 |
| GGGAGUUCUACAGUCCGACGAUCGGUCUGAAGAUGGUCAAGUCUGUUUGCCUUAGAUUUUGAUGUCACCUAGACAACACUUAAACUCAUAUGAAACAAAAAUUAAAAUACGUAUUACAAGUACUUGGAUUGUUUGGAAUUCUCGGGUGCCAA | 0.99 |
| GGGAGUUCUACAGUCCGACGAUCUUUCCUUUCUCAAACCUACUCAAAUAAAAGGAUGAGGGUUAAGGGCAGGAAGUGGGAGGAUCUAAAAAUAGUUUUGAGAUUGUCUUUAAAAAUAAUAAAGAGUAGUUUCUUGGAAUUCUCGGGUGCCAA | 0.43 |

Series 3
Target: Replicase polyprotein 1ab, polymerase (rep, Severe acute respiratory syndrome coronavirus 2, UniProt P0DTD1)
Read-out: enzyme activity
Mode: inhibitor
Concentration: 20 µM
| Structure (SMILES) | inhibition [%] |
| --- | --- |
| O=c1ccc2c(OCCCCOc3ccccc3)c3ccoc3cc2o1 | 1.69 |
| CCc1cc2c(cc1CC)CC(NC[C@H](O)c1ccc(O)c3[nH]c(=O)ccc13)C2 | -3.77 |
| Cc1nc2c([nH]1)-c1ccccc1N(C(=O)c1ccc(NC(=O)c3ccccc3-c3ccccc3)cc1)CC2 | 2.5 |
| CCCC(C(=O)OCCN(CC)CC)(c1ccccc1)c1ccccc1 | -10.1 |
| COc1ccc2c(c1)CN(C)CC2c1ccc(Cl)c(Cl)c1 (stereo not drawn) | 2.14 |
| CC[C@H](/C=C/[C@@H](C)[C@H]1CC[C@H]2[C@@H]3CC=C4C[C@@H](O)CC[C@]4(C)[C@H]3CC[C@]12C)C(C)C | -3.73 |
| C[C@H]1[C@H](NC(=O)/C(=N\OC(C)(C)C(=O)O)c2csc(N)n2)C(=O)N1S(=O)(=O)O | -1.45 |
| Cc1ccc(S(=O)(=O)Nc2ccc3c(c2)c(C(=O)C(F)(F)F)cn3CC(=O)N[C@@H](CC(C)C)C(=O)O)cc1 | -3.41 |
| CCc1ccc(C2=CC(C)(C)Sc3ccc(C#Cc4ccc(C(=O)O)cc4)cc32)cc1 | 0.29 |
| CCCCn1c(=O)c2[nH]c(C34CC5CC(CC3C5)C4)nc2n(CCCO)c1=O | -7.81 |
| CCCCCCCCCCC/C(=N\O)c1cc(C)ccc1O | -2.18 |
| NCCCCCNCC12CC3CC(CC(C3)C1)C2 | -0.79 |
| CC(=O)OC/C=C(C)/C=C/C=C(C)/C=C/C1=C(C)CCCC1(C)C | 1.04 |
| Cc1ccc(NC(=O)c2ccc(CN3CC[C@H](N(C)C)C3)c(C(F)(F)F)c2)cc1Nc1nccc(-c2cncnc2)n1 | -7.73 |
| NC(=O)N1c2ccccc2C=Cc2ccccc21 | 4.44 |
| NCc1cc(O)no1 | -2.08 |
| C=CC[C@]1(O)CC[C@H]2[C@@H]3CCC4=CCCC[C@@H]4[C@H]3CC[C@@]21C | 0.62 |
| CN1[C@@H]2CC[C@H]1C[C@@H](OC1c3ccccc3CCc3ccccc31)C2 | 10.5 |
| O=C(Nc1cccc2c(=O)cc(-c3nnn[nH]3)oc12)c1ccc(OCCCCc2ccccc2)cc1 | -4.88 |
| O=C(Nc1cc(Cl)cc(Cl)c1O)c1c(O)c(Cl)cc(Cl)c1Cl | -2.84 |
| CC(=O)N1CCC(C(=O)N(CCCN2CCC(Cc3ccc(C(N)=O)cc3)CC2)c2ccc(C)c(Cl)c2)CC1 | -0.95 |
| CCOC(=O)COc1ccc2c(c1)C[C@@H](NC[C@H](O)c1cccc(Cl)c1)CC2 | -1.13 |
| CN(C)CCOC(c1ccc(Cl)cc1)c1ccccn1 (stereo not drawn) | -1.04 |
| COc1cc(/C=C/C(N)=O)cc(OC)c1OC | -0.16 |
| O=C(O)C(O)c1ccccc1 (stereo not drawn) | 0.26 |

Series 4
Target: Sal-like protein 4, full length isoform B (SALL4, Homo sapiens, UniProt Q9UJQ4-2, residues 1-616)
Technique: universal PBM
Molecule type: double-stranded DNA, one strand shown
Matrix: in vitro
Concentration: not given
Notes: 8-mer, flanks averaged, mean of replicates
Reading: higher = stronger binding
| Strand | E-score |
| --- | --- |
| GCTTCTGA | -0.0341 |
| CCACTCCG | -0.138 |
| ATTGCTTG | 0.121 |
| AAAACGCG | -0.0896 |
| AGGGAGAA | -0.116 |
| ATTTAAAC | 0.233 |
| CCGCTTTC | -0.211 |
| ATGTGGCG | -0.0773 |

Further values, each from its own experiment
Concentration: 10 µM
Time: 16 h
| SMILES | cell line | read-out | technique | organism | reference | measurement | value |
| --- | --- | --- | --- | --- | --- | --- | --- |
| O=C1NC(=O)C(c2ccccc2)(c2ccccc2)N1 | HEK-293T/ACE2 | – | – | – | vehicle | viability | 100% |
| CCN(CC)C(=S)SSC(=S)N(CC)CC | HEK-293T | pseudovirus infection | FDA-approved drug library screen | VSV pseudotyped with SARS-CoV-2 spike | vehicle-treated | GFP-positive cells | 85% |

Excerpt of the above (series 3):
| Structure (SMILES) | inhibition [%] |
| --- | --- |
| COc1ccc2c(c1)CN(C)CC2c1ccc(Cl)c(Cl)c1 (stereo not drawn) | 2.14 |
| Cc1ccc(S(=O)(=O)Nc2ccc3c(c2)c(C(=O)C(F)(F)F)cn3CC(=O)N[C@@H](CC(C)C)C(=O)O)cc1 | -3.41 |
| NCc1cc(O)no1 | -2.08 |
| CN1[C@@H]2CC[C@H]1C[C@@H](OC1c3ccccc3CCc3ccccc31)C2 | 10.5 |
| NCCCCCNCC12CC3CC(CC(C3)C1)C2 | -0.79 |
| O=C(Nc1cc(Cl)cc(Cl)c1O)c1c(O)c(Cl)cc(Cl)c1Cl | -2.84 |
| CCc1ccc(C2=CC(C)(C)Sc3ccc(C#Cc4ccc(C(=O)O)cc4)cc32)cc1 | 0.29 |
| O=C(O)C(O)c1ccccc1 (stereo not drawn) | 0.26 |
